Results collected from several papers.
Lines come from different studies, so protocols differ. “And” joins repeats or separate records; there may be more than shown. Numbers after ± are the reported error.
Sequence of UniProt P37231 (whole entry, looked up): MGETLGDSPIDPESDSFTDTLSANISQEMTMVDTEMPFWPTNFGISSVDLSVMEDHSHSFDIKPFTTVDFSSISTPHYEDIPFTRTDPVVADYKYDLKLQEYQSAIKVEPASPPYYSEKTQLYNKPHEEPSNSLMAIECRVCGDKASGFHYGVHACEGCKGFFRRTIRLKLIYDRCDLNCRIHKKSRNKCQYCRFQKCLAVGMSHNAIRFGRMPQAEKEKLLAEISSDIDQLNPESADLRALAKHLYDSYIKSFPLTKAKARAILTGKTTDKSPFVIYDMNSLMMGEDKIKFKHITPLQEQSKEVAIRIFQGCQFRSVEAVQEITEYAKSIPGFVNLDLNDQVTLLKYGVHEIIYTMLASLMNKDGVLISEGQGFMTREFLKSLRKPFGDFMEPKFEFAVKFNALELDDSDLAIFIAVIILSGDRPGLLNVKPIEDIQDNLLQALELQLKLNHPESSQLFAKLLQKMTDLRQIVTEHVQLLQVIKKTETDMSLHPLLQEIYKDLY

Compound | target or system | assay | system | setting | how to read | endpoint | result
CN1CCC[C@]1(C)/C=C/S(=O)(=O)NC(=O)Nc1c2c(cc3c1CCC3)CC=C2 | – | – | human, plasma | oral, 100 mg twice daily of parent drug, day 14, metabolite of dosed drug | – | Tmax at first steady-state dose | 3 h
COc1ccnc(C(=O)N[C@H]2COC(=O)[C@H](Cc3ccccc3)[C@@H](OC(=O)C(C)C)[C@H](C)OC2=O)c1O | – | – | Swiss Lake sand sediment, aerobic dark | 20 °C | – | DT50 water | 2.57 days
COc1cccc(OC)c1-c1cc(C(=O)NC2(C(=O)O)C3CC4CC(C3)CC2C4)nn1-c1ccc(C(=O)N(C)CCOCCN(C)C(=O)[C@H](CCCCNC(=O)[C@H](CC(C)C)NC(=O)C2OC2C(=O)O)NC(=O)CN2CCN(CC(=O)[O-])CCN(CC(=O)[O-])CCN(CC(=O)[O-])CC2)cc1C(C)C.[177Lu+3] (mixture of isomers) | – | – | mouse, HT-29 xenograft | 168 h post injection, biodistribution | baseline: tumour over heart uptake | tumour-to-heart ratio | 8.4
C=CC(=O)Nc1cc(Nc2nccc(-c3cn(C)c4ccccc34)n2)c(OC)cc1N(C)CCNC | – | storage stability | human dried blood spots | 24 h, -80 °C, LLOQ level | – | recovery | 91%
CC(=O)N[C@H](CC(=O)O)C(=O)N[C@H](Cc1c[nH]c2ccccc12)C(=O)N[C@H](Cc1ccccc1)C(=O)N[C@H](CCCCN)C(=O)N[C@H](C)C(=O)N[C@H](Cc1ccccc1)C(=O)N[C@H](Cc1ccc(O)cc1)C(=O)N[C@H](CC(=O)O)C(=O)N[C@H](CCCCN)C(=O)N[C@@H](C(=O)N[C@H](C)C(=O)N[C@H](CCC(=O)O)C(=O)N[C@H](CCCCN)C(=O)N[C@H](Cc1ccccc1)C(=O)N[C@H](CCCCN)C(=O)N[C@H](CCC(=O)O)C(=O)N[C@H](C)C(=O)N[C@H](Cc1ccccc1)C(N)=O)C(C)C | – | – | human, plasma | oral, 500 mg daily, 4 h post-dose, day 13 | – | plasma concentration | 110 ng/mL
CC(C)(F)CC(NC(c1ccc(-c2ccc(S(C)(=O)=O)cc2)cc1)C(F)(F)F)C(=O)NCC#N (stereo not drawn) | – | – | PBS | 100 µM, 23 h, pH 7.45, 37 °C, together with: cysteine 10 mM | – | cysteine adduct formation | 91%
CC(=O)c1c(C)c2cnc(Nc3ccc(N4CCNCC4)cn3)nc2n(C2CCCC2)c1=O | – | – | G-Smo medulloblastoma mice (hGFAP-Cre x SmoM2), medulloblastoma tumour | intraperitoneal, 25 mg/kg single, dosed at postnatal day P10 | – | AUC(0-t) | 45100 ng·h/mL
CCCC[C@H](OC(C)=O)c1ccccc1C(=O)O | – | – | Sprague-Dawley rats, both sexes, whole blood | intravenous, 5 mg/kg single dose | – | Vss | 2.5 ± 1.23 L/kg
CN1CCC[C@]1(C)/C=C/S(=O)(=O)NC(=O)Nc1c2c(cc3c1CCC3O)CCC2 (stereo partly drawn) | – | – | human, plasma | oral, 12.5 mg twice daily of parent drug, day 14, metabolite of dosed drug | – | Tmax at first steady-state dose | 3 h
C=CC(=O)Nc1cc(Nc2nccc(-c3cn(C4CC4)c4ccccc34)n2)c(OC)cc1N(C)CCNC | – | long-term storage stability | rat plasma | 80 ng/mL, 3 weeks, -80 °C | baseline: nominal concentration | relative error | 1.7%
O=C(Nc1cnccc1-c1ccc([18F])cc1)c1ccnc(NC(=O)C2CC2)c1 | – | – | FVB/NJ mouse, both sexes, brain | intravenous, 50 min | – | SUV | 0.17
COC1CN([C@H]2CC[C@H]([C@@]3(C)Oc4c(Cl)cc(C(=O)NCc5c(SC)cc(C)[nH]c5=O)c(C)c4O3)CC2)C1 | – | RNA-seq, measured: DUSP8 | human, whole blood | dose not given, 24 h | baseline: pretreatment baseline | log2 fold change | 1.74
COc1cc(N2CCN(C(=O)C3CCCN3)CC2)ccc1Nc1ncc(Cl)c(Nc2ccccc2P(C)(C)=O)n1 (stereo not drawn) | – | – | nude mice, NCI-H3122 xenograft | oral, dose not given, day 5 | – | body weight | 24.4 g and 22.9 g and 22.1 g and 23.4 g and 22.3 g
Cc1nn(-c2nc3c(F)cc(F)cc3s2)c(O)c1C(c1ccc(C(F)(F)F)cc1)c1c(C)nn(-c2nc3c(F)cc(F)cc3s2)c1O | – | – | ICR mouse, plasma | intravenous, 5 mg/kg | – | MRT(0-inf) observed | 8.16 h and 5.44 h and 18.5 h
COC1C=COC2(C)Oc3c(C)c(O)c4c(c3C2=O)C2=NC3(CCN(CC(C)C)CC3)NC2=C(NC(=O)C(C)=CC=CC(C)C(O)C(C)C(O)C(C)C(OC(=O)Nc2cccnn2)C1C)C4=O (stereo not drawn) | – | – | CD-1 mouse, female, plasma | oral, 10 mg/kg | – | oral bioavailability | 44%
CN(O)C(=O)CCC(=O)NCCCN(CCCCN(CCCNC(=O)CCC(=O)N(C)O)C(=O)CCC(=O)N(C)O)C(=O)CCC(=O)N(C)O.[89Zr] | – | radio-TLC | aqueous buffer | 3 d, pH 8.5, 37 °C, 89Zr-labelled complex, together with: DTPA 1000-fold excess | – | intact complex | 99.2 ± 0.7%
CN(CCCO)Cc1ccc(-c2noc(-c3ccc(OCC[18F])c(C(F)(F)F)c3)n2)cc1F | – | – | Sprague-Dawley rats, male, heart | 5 min post-injection | – | tissue uptake | 1.41 ± 0.1 %ID/g
Cc1c(Cc2ccc(Cl)c(OC(C)C(=O)O)c2)c2ccc(C(=O)NC(C)c3cc(F)cc(C(C)(C)C)c3)cc2n1C (stereo not drawn) | Peroxisome proliferator-activated receptor gamma, ligand-binding domain (PPARG, Homo sapiens, UniProt P37231) | reporter gene, luciferase reporter | HEK293T, Gal4-PPARγ LBD | – | – | IC50 | 280 nM
C=CC(=O)Nc1cc(Nc2nccc(-c3c[nH]c4ccccc34)n2)c(OC)cc1N(C)CCN(C)C | – | storage stability | human dried blood spot | 30 d, on ice, LLOQ level | – | recovery | 51.1%
CC(C)(C)C(=O)Nc1ccc2[nH]c(CN3CCC(N(CCCN4CCOCC4)CC4OC(n5cnc6c(N)ncnc65)C(O)C4O)CC3)nc2c1 (stereo not drawn) | – | – | male Sprague-Dawley rat, plasma | intravenous, 20 mg/kg, 2 h | – | concentration | 56 ng/mL
Cc1c(Cc2cc(Cl)cc(OC(C)C(=O)O)c2)c2ccc(C(=O)NC(C)c3ccc(C(C)(C)C)cc3)cc2n1CC1CC1 (stereo not drawn) | Peroxisome proliferator-activated receptor gamma (PPARG, Homo sapiens, UniProt P37231) | ligand displacement, TR-FRET | – | – | – | IC50 | 26.3 nM

Compound | target or system | assay | system | setting | how to read | endpoint | result
CC[C@H](C)[C@H](NC(=O)[C@H](CCCNC(=N)N)NC(=O)[C@H](Cc1c[nH]cn1)NC(=O)[C@@H](N)[C@@H](C)O)C(=O)N[C@@H](CC(C)C)C(=O)N[C@@H](CCCNC(=N)N)C(=O)N[C@@H](CCCNC(=N)N)C(=O)N[C@@H](CC(C)C)C(=O)N[C@@H](Cc1ccccc1)C(=O)N[C@@H](CC(N)=O)C(=O)N[C@@H](CC(C)C)C(=O)N[C@@H](CS)C(N)=O | – | metabolic cages | C57BL/6J mice | ip, 5 mg/kg | – | water intake | no effect
CC(C)OCCOCc1ccc(OCC(O)CN(N=O)C(C)C)cc1 (stereo not drawn) | – | duplex sequencing, measured: mutation frequency | NMRI mouse, bone marrow | oral, 98.0 mg/kg/day, 4 weeks | baseline: vehicle | fold change | 1.5
CC[C@H](C)[C@@H]1NC(=O)[C@H](Cc2ccc(O)cc2)NC(=O)CCCSC[C@@H](C(=O)N(CC(=O)N[C@@H](CC(C)C)C(=O)NCC(N)=O)Cc2ccc(F)cc2)NC(=O)[C@H](CC(N)=O)NC(=O)[C@H](CCC(N)=O)NC1=O | – | – | human | intranasal, 300 µg single dose | – | serious adverse events | 0%
C/C(N)=N/C(=N\S(=O)(=O)c1ccc(C(F)(F)F)cc1)N1C[C@H](c2ccccc2)C(c2ccc(Cl)cc2)=N1 | – | – | C57BL/6 mouse, lung | intravenous, 10 mg/kg | – | Tmax | 6 min
COCC1CN(C2CCN(c3cc(OC)c(Nc4ncc(Br)c(Nc5ccc6c(c5P(C)(C)=O)OCCO6)n4)cc3C)CC2)C1 | – | – | EGFR-mutant NSCLC patients | oral, 60 mg once daily | – | grade ≥3 treatment-related AEs | 14.3%
C[N+](C)(CCOCCOCCOCCNC(=S)Nc1ccc(C[C@H]2CN(CC(=O)[O-])CCN(CC(=O)[O-])CCN2CC(=O)[O-])cc1)C[c-]1cccc1.[64Cu+2].[Fe+2].c1cc[cH-]c1 | – | pretargeted biodistribution | nude mouse, BxPC-3 xenograft tumour | 8 h post injection, 216 h lag time | – | tumour uptake | 1.1 ± 0.4 %ID/g
O[C@@H]1[C@@H](O)[C@H](n2cc(-c3ccc(-c4nncnn4)cc3)nn2)O[C@H](C[18F])[C@H]1O | – | PET imaging | BALB/c nude mouse, LS174T xenograft, tumour, heart as blood | intravenous, 1 h, together with: CC49-TCO 72 h before | baseline: tumour over heart | tumour to blood ratio | 0.75
C=C(NC(=O)c1csc(-c2nc3c(cc2O)-c2nc(cs2)C(=O)NC(C(C)O)C(=O)NC(=C(C)OC)c2nc(cs2)C(=O)NC2c4nc(cs4)C(=O)NC(COC(=O)c4c5c6c(cccc6n4O)COC(=O)C(OC4CC(C)(O)C(N(C)C)C(C)O4)C2OC5)c2nc-3cs2)n1)C(N)=O (stereo not drawn) | – | – | cynomolgus monkey, both sexes, plasma | intravenous infusion, 9 mg/kg single dose | – | clearance | 3.51 mL/min/kg
CC(C)(O)c1ncc([S@](N)(=O)=NC(=O)Nc2c3c(cc4c2CCC4)CCC3)s1 | – | measured: skin, subcutaneous tissue disorders | healthy human | oral, 30 mg, 14 days, CS formulation, once daily | – | subjects with TEAEs | 67%
C=Cc1c(C)c2cc3nc(c(CC(=O)OCCOCCOCCOC)c4[nH]c(cc5nc(cc1[nH]2)C(C)=C5CC)c(C)c4C(=O)O)[C@@H](CCC(=O)OCCOCCOCCOC)[C@@H]3C | – | LC-MS | methanol-water 9:1 | 4 h, pH 2.0 | – | compound loss | 57%
CCNCC#CCNc1ccnc2cc(Cl)ccc12 | – | measured: compound as metabolite | mouse hepatocytes | 10 µM DAQ, 30 min | higher = more metabolite formed | MS peak area | 4.23e+06 a.u.
Cc1[nH]nc2c1N=C(c1ccccc1Cl)c1cnc(N3CCOCC3)cc1N2 | – | – | monkey, plasma | – | – | fraction unbound | 0.0332
CCCCN1C(=O)c2cccc3c(NCCCCCCN4CCOCC4)ccc(c23)C1=O | – | – | toluene | – | – | fluorescence quantum yield | 0.99
O=C([O-])CN1CCN(CC(=O)[O-])CCN(CC(CCCc2ccccc2[N+](=O)[O-])N(CC(=O)[O-])CC(=O)[O-])CC1.[177Lu+3] (stereo not drawn) | – | TLC | human serum | 327 h, pH 7, 37 °C | – | intact radiolabelled complex | 99.8 ± 0.3%
CCCC[C@H](NC(=O)CNC(=O)CNC(=O)[C@H](CCCCNC(=O)[C@H](CCN)NC(=O)C(C)c1ccc(CC(C)C)cc1)NC(=O)CN1CCN(CC(=O)O)CCN(CC(=O)O)CCN(CC(=O)O)CC1)C(=O)N[C@H]1CC(=O)NCCCC[C@@H](C(N)=O)NC(=O)[C@H](Cc2c[nH]c3ccccc23)NC(=O)[C@H](CCCNC(=N)N)NC(=O)[C@@H](Cc2ccccc2)NC(=O)[C@H](Cc2c[nH]cn2)NC1=O (stereo partly drawn) [lutetium-177 labelled] | – | – | C57 mice, tumour | 2 h | baseline: liver | tumour-to-tissue ratio | 0.49
Cc1ccc(CN2C(=O)/C(=N\c3ccc(Cl)cc3Br)c3ccccc32)cc1 | – | – | mouse, blood | 100 mg/kg | – | granulocytes | 48 ± 6%
Cc1cc(NC(=O)[C@H](O)c2cc(F)cc(F)c2)ccc1-c1cnc(N)c(C(=O)NC(C)C)c1 | – | – | athymic nude Foxn1nu mouse, female, plasma | oral, 100 mg/kg | – | dose-normalised Cmax | 166 ng·kg/mL/mg
CCC1CNC(CC)CN(C(C(=O)[O-])c2ccc(C(=O)[O-])cc2)C(CC)CN(CC(=O)[O-])C(CC)CN1.[Mn+2] (stereo not drawn) | – | ICP-MS | BALB/c mouse, brain | intravenous, 0.05 mmol/kg, 5 min, without anaesthesia | – | Mn content | 0.65 ± 0.02 µg/g
O=C(O)CCCOc1ccc([18F])cc1-c1cc(-c2ccccc2C(F)(F)F)n(-c2ccccc2)n1 | – | OLINDA/EXM from mouse data | human adults, testes | – | – | absorbed dose | 7.71 µGy/MBq
O=C(NS(=O)(=O)c1cccs1)c1cc2ccccc2n1Cc1ccc(Br)c2ccccc12 | – | – | KM mouse, chronic hyperuricaemia model | dose not given, day 2 | – | body weight | 25.5 g and 26.7 g and 28.7 g and 28.4 g
Cc1cc(C)n(CCN(CCN)CCCCCCNC(=O)[C@@H](N)Cc2c[nH]c3ccccc23)n1.[99Tc+].[C-]#[O+].[C-]#[O+].[C-]#[O+] | – | – | BALB/c nude mice A549 xenograft | intravenous, 4 h | baseline: tumour over blood | tumour-to-tissue ratio | 1.5

A few entries again:
Compound | target or system | assay | system | setting | how to read | endpoint | result
Cc1[nH]nc2c1N=C(c1ccccc1Cl)c1cnc(N3CCOCC3)cc1N2 | – | – | monkey, plasma | – | – | fraction unbound | 0.0332
CCCCN1C(=O)c2cccc3c(NCCCCCCN4CCOCC4)ccc(c23)C1=O | – | – | toluene | – | – | fluorescence quantum yield | 0.99
O=C([O-])CN1CCN(CC(=O)[O-])CCN(CC(CCCc2ccccc2[N+](=O)[O-])N(CC(=O)[O-])CC(=O)[O-])CC1.[177Lu+3] (stereo not drawn) | – | TLC | human serum | 327 h, pH 7, 37 °C | – | intact radiolabelled complex | 99.8 ± 0.3%
